Measured values collected from several papers.
Each numbered part is a random draw from the data of one study; scales do not carry over between parts.

Set 1 — technique: Spec-seq; molecule type: double-stranded DNA, one strand shown; sample: in vitro; concentration: not given; notes: whole probe, mean of replicates; baseline: not given; reading: lower = stronger binding
Target: POU domain, class 5, transcription factor 1, POU domain (Pou5f1, Mus musculus, UniProt P20263, residues 131-289)
Chain of UniProt P20263 (131-289, looked up): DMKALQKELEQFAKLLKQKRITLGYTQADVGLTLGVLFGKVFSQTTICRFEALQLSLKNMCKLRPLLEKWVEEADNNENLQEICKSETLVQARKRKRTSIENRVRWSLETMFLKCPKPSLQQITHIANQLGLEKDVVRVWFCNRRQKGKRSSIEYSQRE
`GAGTCGTCTCGTCAGCACATCTCAATCCGTAGAGCACTCAGGTC` — result for “relative binding energy”: -0.156 ln ratio.
Under “relative binding energy”, `GAGTCGTCTCGTCAGCACAGTCTAATCCGTAGAGCACTCAGGTC` is recorded as 0.621 ln ratio.
`GAGTCGTCTCGTCAGCACATCGTCATCCGTAGAGCACTCAGGTC`: “relative binding energy” 0.566 ln ratio.
`GAGTCGTCTCGTCAGCACATGCTAGTCCGTAGAGCACTCAGGTC`: “relative binding energy” 0.368 ln ratio.

Set 2 — technique: protein-binding microarray; molecule type: double-stranded DNA, one strand shown; sample: in vitro; concentration: 250 nM; notes: 60-bp whole probe; with: salmon DNA 0.4 mg/ml; baseline: random background probes; reading: higher = stronger binding
Target: Interferon regulatory factor 7, full length, phosphomimetic (IRF7, Homo sapiens, UniProt Q92985, residues 1-503, S101K/S471D/S472D/S475D/S476D/S477D/S483D/S484D/S487D)
Chain of UniProt Q92985 (whole entry, unmodified, looked up): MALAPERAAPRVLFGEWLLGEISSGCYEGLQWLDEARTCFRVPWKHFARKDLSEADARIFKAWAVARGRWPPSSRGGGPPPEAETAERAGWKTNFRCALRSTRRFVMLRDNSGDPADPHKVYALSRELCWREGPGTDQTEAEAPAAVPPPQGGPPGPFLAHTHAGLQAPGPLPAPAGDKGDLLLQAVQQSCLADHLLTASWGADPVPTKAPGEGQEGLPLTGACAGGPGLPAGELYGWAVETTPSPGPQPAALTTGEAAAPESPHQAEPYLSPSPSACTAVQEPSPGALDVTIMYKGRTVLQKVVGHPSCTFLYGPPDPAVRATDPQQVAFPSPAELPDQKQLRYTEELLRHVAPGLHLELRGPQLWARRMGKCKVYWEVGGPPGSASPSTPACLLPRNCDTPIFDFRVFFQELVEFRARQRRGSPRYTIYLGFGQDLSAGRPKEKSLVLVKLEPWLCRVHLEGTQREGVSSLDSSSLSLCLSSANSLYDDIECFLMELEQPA
With `GCCTAGCACTGAGATATCAGTCTCGATTAGTGCTAGGTCTTGATTCGCTTGACGCTGCTG` the log fluorescence was 1.3 z-score.
For `GCCTAGCACGACGATTCCAGTTTCGGGACGTGCTAGGTCTTGATTCGCTTGACGCTGCTG`, the log fluorescence was 3.54 z-score.
The log fluorescence of `GCCTAGCACGCTGTCATCGATTTCTTCCCGTGCTAGGTCTTGATTCGCTTGACGCTGCTG` is reported as -0.0404 z-score.
With `GCCTAGCACTTAGGTTTCATTATCCTTTAGTGCTAGGTCTTGATTCGCTTGACGCTGCTG` the log fluorescence was 4.56 z-score.

Set 3 — technique: RNA Bind-n-Seq; molecule type: RNA; sample: in vitro; concentration: not given; baseline: input RNA pool; reading: higher = stronger binding
Target: RING finger protein unkempt homolog, zinc fingers 1-6, GST-SBP tag (UNK, Homo sapiens, UniProt Q9C0B0, residues 30-357)
Chain of UniProt Q9C0B0 (30-357, looked up): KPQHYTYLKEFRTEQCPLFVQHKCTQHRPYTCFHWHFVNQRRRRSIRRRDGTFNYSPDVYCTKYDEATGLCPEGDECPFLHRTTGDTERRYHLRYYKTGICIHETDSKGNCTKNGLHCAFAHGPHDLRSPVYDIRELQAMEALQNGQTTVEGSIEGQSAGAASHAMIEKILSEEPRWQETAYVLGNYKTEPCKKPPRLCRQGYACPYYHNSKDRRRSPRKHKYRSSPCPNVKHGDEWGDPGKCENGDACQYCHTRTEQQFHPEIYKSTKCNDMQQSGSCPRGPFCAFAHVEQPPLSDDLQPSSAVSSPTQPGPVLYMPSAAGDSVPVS
Notes: RNA with constant flanks, human and mouse sites, ends assumed
For `GGGAGUUCUACAGUCCGACGAUCUUUGCCUCCGUCCAGAAACAGGCUAGUGAGAAGAGGGCUCUCCGCAAAAAGAGGAAGGCCCUGGAGUUUGUAACUAAUCCCGAUAUUGCUGCCAAGAAGAAGUUGAAGAAACAUAAAAAUCAACAGAGGAUUGAGCAUCA`, the bound/input enrichment was 0.185 ratio.
`GGGAGUUCUACAGUCCGACGAUCCUCCAGAAAGAAAACAAAAUUAAUGCCUUGCAUCCUGGAAGUUCAUUUAGGAAUCUGAAAUUAGGGACUUCUUUAAAAUUUGGACAUGGCUAAUCGAGGAGCAACAAGACCCAACGGGCCCAACAGAGGAUUGAGCAUCA` gave a bound/input enrichment of 0.927 ratio.
With `GGGAGUUCUACAGUCCGACGAUCGGCUGGCCCGUGUCACUGCCUCUGUCACCCAGCUAUCCUCGCACUCAAAGCCAUCCAACCUCAGCAGGCCUUCUCGGGCCCUGCCACCUGAAUAGGUCUGACCCCAGUCCCCACUCCCUUCAACAGAGGAUUGAGCAUCA` the bound/input enrichment was 0.271 ratio.

Other studies, line by line
With `PhoQ, residues 284 288 289 292 302 303 ASVMEA` the fold induction was 32.8 (PhoP, residues 12 14 15 18 19 LHATL (Escherichia coli, UniProt P23836); Sort-seq, item: YFP reporter; E. coli; PhoQ-PhoP variant library, with: 10 µM Mg2+; baseline: high Mg2+ state, higher = stronger signaling).

For quick reference, copied from above (set 3):
`GGGAGUUCUACAGUCCGACGAUCCUCCAGAAAGAAAACAAAAUUAAUGCCUUGCAUCCUGGAAGUUCAUUUAGGAAUCUGAAAUUAGGGACUUCUUUAAAAUUUGGACAUGGCUAAUCGAGGAGCAACAAGACCCAACGGGCCCAACAGAGGAUUGAGCAUCA` gave a bound/input enrichment of 0.927 ratio.
